Measured values gathered from unrelated publications.
Parts stem from different laboratories: compare values within a part only.

Block 1
Target: Interferon regulatory factor 5, full length, phosphomimetic (IRF5, Homo sapiens, UniProt Q13568-2, residues 1-514, K96S/S451D/S453D/S456D/S462D)
Method: protein-binding microarray
Molecule type: double-stranded DNA, one strand shown
Matrix: in vitro
Tested at: 250 nM
Setting: 60-bp whole probe
With: salmon DNA 0.4 mg/ml
Baseline: random background probes
Reading: higher = stronger binding
Constant ends, left off below: GCCTAGCAC … GTCTTGATTCGCTTGACGCTGCTG
Oligonucleotide | log fluorescence [z-score]
CCTGGTTTTACTTTCTATCTGTGCTAG | 4.43
TCAATGTTCCCTATTTAACTGTGCTAG | 0.626
TCAGGTCTCCTTCTCCTTTAGTGCTAG | -0.0164
TCATGTTTGGTCCTGATACTGTGCTAG | 0.0467
GACGGAATGGGACTGGGGACGTGCTAG | -0.556
GACGGACCGGACTATCGGGACGTGCTA | 0.949
TTAGGTCTCCTATTCCTTTAGTGCTAG | -0.138
CATTTTTTTTTTCTACTTCTGTGCTAG | 1.43
TCAAAAAAAAAAAACTGTACTGTGCTA | 0.829
TCTTTCACAAGACGAAAGGAGTGCTAG | 4.21
GACGAACTGAGACTGGAAACGTGCTAG | -0.172
GCACGGCTCGTTATCCTATAGTGCTAG | -0.525
TTAGGTCTCCTTCGCCTTTAGTGCTAG | 0.266
TTAGGTATGCTTATCCTTTAGTGCTAG | -0.176
GACGGTATCCTTCTCGTGACGTGCTAG | 0.168
GTCGGTTTCGGGTATCGGGACGTGCTA | 8.96
TTAGAACTGAGTCTCGACTAGTGCTAG | 0.0628
TGAGGACTGGGGTATCGGTTAGTGCTA | 2.22

Block 2
Target: RING finger protein unkempt homolog, zinc fingers 1-6, GST-SBP tag (UNK, Homo sapiens, UniProt Q9C0B0, residues 30-357)
UniProt Q9C0B0, sequence (30-357, looked up): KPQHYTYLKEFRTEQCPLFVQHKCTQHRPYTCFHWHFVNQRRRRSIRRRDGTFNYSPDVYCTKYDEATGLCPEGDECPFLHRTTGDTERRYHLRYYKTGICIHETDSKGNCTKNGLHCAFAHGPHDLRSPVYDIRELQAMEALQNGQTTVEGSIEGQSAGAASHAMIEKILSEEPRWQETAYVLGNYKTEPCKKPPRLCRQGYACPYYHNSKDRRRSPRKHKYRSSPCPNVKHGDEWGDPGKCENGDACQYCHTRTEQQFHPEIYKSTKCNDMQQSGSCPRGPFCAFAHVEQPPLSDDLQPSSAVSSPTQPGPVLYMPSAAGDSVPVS
Method: RNA Bind-n-Seq
Molecule type: RNA
Matrix: in vitro
Tested at: not given
Setting: RNA with constant flanks, human and mouse sites, ends assumed
Baseline: input RNA pool
Reading: higher = stronger binding
Oligonucleotide | bound/input enrichment [ratio]
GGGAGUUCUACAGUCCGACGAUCUAUUUUUAUAACUAUCCAGCAGUGUGUGAAUUUUUGCAAAACAAUAAUUUGUUAUCGAUUAUUAGAGCUCAUGAAGCUCAAGAUGCAGGCUAUAGAAUGUACAGAAAAAGUCAAACUACACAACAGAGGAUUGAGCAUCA | 0.428
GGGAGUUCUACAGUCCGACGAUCAAAGAAAAAGAUGAAAUGGUAGAACAAGAAUUUAACCGGUUGCUAGAAGCCACUUCUUACCUUAGUCACCAGUUAGACUUCAACGUCCUCAAUAAUAAACCUGUAUCCCUUGGCCAGGCACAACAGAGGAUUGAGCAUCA | 0.298
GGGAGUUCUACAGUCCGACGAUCUGGGGGAGUUCUAAAAACAGGUGGUAUCUGUUUUUAAUUAUAAAAUAAUAAACAUUUACCAUAGAACAGUUACAAAGACAUGAAAAACACCUAAAACUCUACCACACACCUAGCCUUCCCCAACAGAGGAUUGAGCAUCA | 0.904
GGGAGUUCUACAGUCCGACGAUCAGGAAUUACAGGUCUUCAAGAUAUUUUUCCUUUAAAUUGUGAACAUUUUAUCUUGCACUGUAAUUGGCUGUCUCCAUAAGGAAUGAUUUAUUCUUGGAUUCUGACAUUCCUGUGUAUACUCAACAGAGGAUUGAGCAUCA | 0.0908
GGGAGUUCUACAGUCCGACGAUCAAUCACUUUGAAGUCCUCCCUCCCGAGCUGGGAGACUGCCGGGCUCUGAAGCGAGCCGGGCUAGUUGUGGAAGAUGCUCUGUUUGAGACUCUGCCCUCAGAUGUCCGGGAGCAGAUGAAACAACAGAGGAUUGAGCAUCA | 0.113
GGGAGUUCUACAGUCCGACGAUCCCCUGUGCCCGUGGUUCUCUGCGCAUGCCCGGACCCCGGCGGCUCCGGAGUCCGGGAGGCUCUGGCUGCUCCAGUCGCGGGUCCGGGCCCCGCCUCUCCACUCGGCGGUGGCGUCCGUGUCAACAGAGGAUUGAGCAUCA | 0.236
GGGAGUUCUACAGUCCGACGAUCCAAAGCAUCCUAACAGGGUCGUUCCCAUACACAUUUGACCUGGUCAGCCUUUUCCAGGUGAAUAGCCCCAGUUCUGACAUAAAGAAAGUUUUAUUUGUAUUUUACUACUGUUUGGUCAAUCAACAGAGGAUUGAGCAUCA | 0.909
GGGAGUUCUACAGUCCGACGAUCGCCGGAAACAAACCAGAAGCUGUAGAAGUAACAUUUGCAGAUUUUGAUGGCGUCCUUUAUCAUAUUUCAAAUCCUAAUGGAGACAAAACAAAAGUGAUGGUCAGUAUUUCUUUGAAAUUCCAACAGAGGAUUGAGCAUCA | 0.694
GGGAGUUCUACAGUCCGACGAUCGGCGGUGGCUCCGAGAUAGGGGUCUUUCAUCUGGGGGUGCCUGUGGAGGCCUUGUUCUUCGUCGGGAACCAGCUCAUUGCUACAAGCCACACAGGGCGCAUCGGGGUGUGGAAUGCCGUCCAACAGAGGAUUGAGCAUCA | 0.379
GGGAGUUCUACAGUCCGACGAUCUUCUAGCAGAGGCAAGAAUACAUAUUCAUAUACGCUUACUUAUGAAUUACCAUUUUAACAUUUAGAUAACAUGAAAUAUGGCCCUCUUGAAUUCUUGCUUUUAAGUUCCUUUUGAUAUGUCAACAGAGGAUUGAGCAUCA | 1.88
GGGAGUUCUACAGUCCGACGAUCAAGAAGUUCAAGGAAGUUGGAGAGGCCUUUACUAUCCUCUCUGAUCCCAAGAAAAAGACUCGCUAUGACAGUGGACAGGACCUAGAUGAGGAGGGCAUGAAUAUGGGUGAUUUUGAUCCACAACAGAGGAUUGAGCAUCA | 0.466

Block 3
Target: Histone acetyltransferase KAT6A, winged helix 2, GST fusion (KAT6A, Homo sapiens, UniProt Q92794, residues 85-181)
Method: protein binding microarray
Molecule type: double-stranded DNA, one strand shown
Matrix: in vitro
Tested at: not given
Setting: 8-mer, flanks averaged, mean of 2 arrays, mostly near background
Baseline: not given
Reading: higher = stronger binding
Residues (chain): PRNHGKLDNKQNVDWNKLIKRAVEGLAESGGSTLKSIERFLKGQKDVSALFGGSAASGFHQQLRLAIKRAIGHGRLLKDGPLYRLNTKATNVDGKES
Oligonucleotide | E-score
ATGTTCGG | 0.0352
CTACGATA | -0.112
ATTACGCG | -0.0246
CAGTCGAA | -0.092
AGCGTGCC | 0.0484
CGGTTGCA | 0.00895
ACGAGGAT | -0.0334
TACTAGTA | 0.114
GACATGAA | -0.0331
TGCTAACA | 0.206
ATTGAAAA | 0.00916
ACTCTGAG | -0.0679
AGAGGGTG | 0.109
GCACAGTA | 0.0535
AGCACAGC | 0.15
CCGGAACA | 0.115
ACAAACGT | -0.0562
ACCCCCTG | 0.0289
CCCCTGAG | 0.0382
GAGTTCAA | 0.059
GCTCGCAA | 0.108
CAACCTCC | -0.0689
ACCGGTTA | -0.0699
GCCATCGC | 0.0367
GGTAATGA | -0.078

Block 4
Target: RNA binding protein fox-1 homolog 2, RRM domain, GST-SBP tag (RBFOX2, Homo sapiens, UniProt O43251-10, residues 100-194)
Method: RNA Bind-n-Seq
Molecule type: RNA
Matrix: in vitro
Tested at: 365 nM
Setting: natural RNA segment, single round, ends assumed
Baseline: no-protein control
Reading: higher = stronger binding
Construct (chain): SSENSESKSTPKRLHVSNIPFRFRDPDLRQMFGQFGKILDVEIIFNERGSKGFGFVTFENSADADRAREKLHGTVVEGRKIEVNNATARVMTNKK
Oligonucleotide | RBNS enrichment (R)
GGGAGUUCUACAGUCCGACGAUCUGUUAAGUACUCAGGCAUGACUACGCUAUCAGCUACGAAACAUGUUAACUCUCACUAGGAAUAGCUUUGGCUUAAGAGUCCAGCAGGGGCAACUUCCUGAGAUGAAUGAAUGGAAUUCUCGGGUGCCAA | 2.21
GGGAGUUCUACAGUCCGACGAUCGGAUGCUUUUUUUCCAGGACAGAUAGGUUCUGGAUCUCAGGGGUGAGAUAGGGGGCAGCCUUCAAUGGCAGCUCAUACUUCACCUUCCCCAGACUUGCACUGGGGUAGGAUGGAAUUCUCGGGUGCCAA | 0.276
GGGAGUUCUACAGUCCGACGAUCACUUCAAAAGACAGGAUUGACAAAUUCAGUCAAUACUAUUUUAGAGAUUCUGUUAGAUGAUAUGUCUGACCCAAAUUUAAUCCAUAAUAAAAAAAAAUGGGAGAUUGUUUUGGAAUUCUCGGGUGCCAA | 0.349
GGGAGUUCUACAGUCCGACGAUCGCAUUCAUUUCUAUACAUCACACAUCUCCAGGAGAAUGCACAUUAUAGGUAUGUAAUGUGGAACCGACACUGGGGAGAUCUGAAGGAAGAAGGCAUGAGGCACUCUCUGAUGGAAUUCUCGGGUGCCAA | 1.62
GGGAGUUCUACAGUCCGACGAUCCAAACGUUCCUACAGCCUAGAGGUGCGUAUACACACCCAAGUACACGCAGCCAGGCAUUCAGGGGUGUGUUUGCCACAUGGAGCAUCCCUUCCUGGUCUUGCCAGGCACCUGGAAUUCUCGGGUGCCAA | 0.344
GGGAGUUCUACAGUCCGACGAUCUGGAAGAAAAUAACCUUAUUGUUUUCUUAAAGCUAAACAGAAUAGGAUUGGUACUCAUUAAUUAUGUCUUGCAAAUAUUUUCUAAAAAUUCAACCACUCUCCUAAAAUGGUGGAAUUCUCGGGUGCCAA | 1.16
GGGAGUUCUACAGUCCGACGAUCGGCUCAAGGCUUCCCCAGCAAAGAUUAGGGAAAGAGACUUGACCCCAGGACUGUACUACGACUCUUAAGAGAACACUGCACAGCACUCAAAGUCCCCCACUGGACUGCUUUGGAAUUCUCGGGUGCCAA | 0.503
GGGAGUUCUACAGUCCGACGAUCGCACCUGACUGGGAGCUAGGGGACCACCUGCCUUGGCCAGACCUGGGACGCCCCCAGACCCUGACUUUCUCCUGCGUGGGCCGUCUCCUCCUGCGGAAGCAGUGACCUCUUGGAAUUCUCGGGUGCCAA | 0.465
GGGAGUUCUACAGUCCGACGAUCCAGACAGGAAAGGGAAGGCCCCACAGACAAGGUAGCCCUGGCCAGAGGCUUGUUUUGUCUUUUGGUUUUUAUGAGGUGGGAUAUCCCUAUGCUGCCUAGGCUGACCUUGAUGGAAUUCUCGGGUGCCAA | 0.451
